Published values from different studies.
A part holds a random share of what one study measured. Several values in a cell are separate wells, animals, samples, runs or records.
Chain of UniProt P68400 (whole entry, looked up): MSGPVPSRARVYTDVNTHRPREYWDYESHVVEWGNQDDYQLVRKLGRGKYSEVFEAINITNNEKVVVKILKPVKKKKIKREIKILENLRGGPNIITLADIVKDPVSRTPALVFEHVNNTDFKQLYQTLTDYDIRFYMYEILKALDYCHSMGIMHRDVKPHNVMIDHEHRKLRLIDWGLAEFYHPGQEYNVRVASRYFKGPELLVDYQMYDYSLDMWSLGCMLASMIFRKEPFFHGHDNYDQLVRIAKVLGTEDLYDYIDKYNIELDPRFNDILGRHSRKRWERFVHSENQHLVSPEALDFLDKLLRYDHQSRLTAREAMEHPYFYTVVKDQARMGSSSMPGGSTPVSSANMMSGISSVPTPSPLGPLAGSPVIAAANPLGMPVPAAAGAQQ
Chain of UniProt P36507 (whole entry, looked up): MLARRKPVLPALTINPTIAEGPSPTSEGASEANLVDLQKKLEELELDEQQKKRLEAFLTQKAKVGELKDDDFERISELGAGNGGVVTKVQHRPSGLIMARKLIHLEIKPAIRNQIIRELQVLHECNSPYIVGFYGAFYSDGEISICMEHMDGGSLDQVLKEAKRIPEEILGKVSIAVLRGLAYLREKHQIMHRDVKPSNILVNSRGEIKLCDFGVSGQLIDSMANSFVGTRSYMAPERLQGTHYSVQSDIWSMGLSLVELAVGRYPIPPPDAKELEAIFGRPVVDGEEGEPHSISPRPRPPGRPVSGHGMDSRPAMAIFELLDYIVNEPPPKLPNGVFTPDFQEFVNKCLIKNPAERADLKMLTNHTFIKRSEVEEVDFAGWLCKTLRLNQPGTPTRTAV
Chain of UniProt O95782 (whole entry, looked up): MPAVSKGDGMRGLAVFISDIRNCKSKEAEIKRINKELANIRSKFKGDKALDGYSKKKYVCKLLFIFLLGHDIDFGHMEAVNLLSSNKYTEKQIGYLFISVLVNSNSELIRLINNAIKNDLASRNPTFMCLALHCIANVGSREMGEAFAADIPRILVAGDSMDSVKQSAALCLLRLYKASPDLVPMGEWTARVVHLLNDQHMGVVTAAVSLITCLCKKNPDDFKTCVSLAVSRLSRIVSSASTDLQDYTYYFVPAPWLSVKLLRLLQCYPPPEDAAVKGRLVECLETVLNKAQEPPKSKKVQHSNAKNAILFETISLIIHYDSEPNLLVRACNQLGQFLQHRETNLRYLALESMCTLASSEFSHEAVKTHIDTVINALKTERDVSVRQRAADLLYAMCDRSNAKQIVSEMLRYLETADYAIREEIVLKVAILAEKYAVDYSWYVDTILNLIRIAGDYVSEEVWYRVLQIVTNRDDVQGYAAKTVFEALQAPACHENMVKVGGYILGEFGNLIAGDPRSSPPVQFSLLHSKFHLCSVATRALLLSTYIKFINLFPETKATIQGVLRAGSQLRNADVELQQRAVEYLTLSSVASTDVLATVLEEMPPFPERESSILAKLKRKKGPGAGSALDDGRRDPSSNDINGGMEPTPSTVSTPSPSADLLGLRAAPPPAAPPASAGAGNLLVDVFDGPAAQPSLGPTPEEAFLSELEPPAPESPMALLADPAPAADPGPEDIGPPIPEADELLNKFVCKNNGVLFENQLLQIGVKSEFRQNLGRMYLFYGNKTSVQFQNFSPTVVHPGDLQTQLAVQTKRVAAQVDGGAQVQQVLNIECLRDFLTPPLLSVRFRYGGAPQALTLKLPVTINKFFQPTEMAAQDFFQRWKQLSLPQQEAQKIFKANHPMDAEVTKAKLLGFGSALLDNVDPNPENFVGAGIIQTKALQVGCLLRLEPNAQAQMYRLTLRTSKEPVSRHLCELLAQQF

Set 1
SMILES: CC(C)[C@H](CO)Nc1nc(Nc2cccc(Cl)c2)c2ncn(C(C)C)c2n1
Endpoint: IC50
AP-2 complex subunit alpha-1 (Homo sapiens, UniProt O95782): > 10 µM
Trypanosoma brucei kinase GI 71749328; binding, kinobead competition; Trypanosoma brucei lysate: > 10 µM
Trypanosoma brucei protein Tb427tmp.01.8085; binding, kinobead competition; Trypanosoma brucei lysate: > 10 µM
Trypanosoma brucei protein Tb427tmp.02.1690; binding, kinobead competition; Trypanosoma brucei lysate: > 10 µM
Trypanosoma brucei protein Tb427tmp.160.2490; binding, kinobead competition; Trypanosoma brucei lysate: > 10 µM
MAP2K2 (Homo sapiens, UniProt P36507): > 10 µM
Trypanosoma brucei kinase Tb427tmp.01.0930; binding, kinobead competition; Trypanosoma brucei lysate: > 10 µM
CSNK2A1 (Homo sapiens, UniProt P68400): > 10 µM

Set 2
Target: Ribosomal protein S6 kinase alpha-1 (RPS6KA1, Homo sapiens, UniProt Q15418)
Chain of UniProt Q15418 (whole entry, looked up): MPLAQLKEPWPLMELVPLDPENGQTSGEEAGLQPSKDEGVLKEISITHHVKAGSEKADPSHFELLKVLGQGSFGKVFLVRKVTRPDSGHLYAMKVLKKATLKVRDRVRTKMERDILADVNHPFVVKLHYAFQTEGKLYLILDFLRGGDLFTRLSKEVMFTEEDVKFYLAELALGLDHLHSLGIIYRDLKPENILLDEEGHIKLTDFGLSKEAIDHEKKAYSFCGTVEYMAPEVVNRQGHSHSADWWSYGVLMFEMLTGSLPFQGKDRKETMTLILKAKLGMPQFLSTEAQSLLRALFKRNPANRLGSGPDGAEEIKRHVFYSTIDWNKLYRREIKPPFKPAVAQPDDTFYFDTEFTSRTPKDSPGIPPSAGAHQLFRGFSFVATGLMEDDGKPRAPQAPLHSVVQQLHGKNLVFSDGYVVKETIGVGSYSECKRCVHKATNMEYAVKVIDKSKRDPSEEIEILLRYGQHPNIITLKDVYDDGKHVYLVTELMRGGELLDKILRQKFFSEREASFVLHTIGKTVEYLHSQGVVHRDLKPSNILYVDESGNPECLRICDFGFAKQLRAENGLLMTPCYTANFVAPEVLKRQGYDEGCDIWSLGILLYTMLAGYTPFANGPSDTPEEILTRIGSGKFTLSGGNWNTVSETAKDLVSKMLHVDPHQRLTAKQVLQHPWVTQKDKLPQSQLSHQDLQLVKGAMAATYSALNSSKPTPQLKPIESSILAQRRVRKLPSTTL
Read-out: enzyme activity
Action: inhibitor
Tested at: 0.5 µM
Reference: control
Endpoint: remaining activity
Cc1nc2cc3nc(-c4cccs4)cnc3cc2n1C: 99.4%
O=c1cc(-c2cccc3c2Sc2ccccc2S3)oc(N2CCOCC2)c1: 97.6%
O=C(Nc1cccc(Nc2nccc(Nc3cccc(C(F)(F)F)c3)n2)c1)C1CC1: 92.8%
N#Cc1c(NC(=O)c2cccc3ccccc23)sc2c1CCCC2: 86.1%
Cn1nc2c3c(cccc31)C(=O)c1ccccc1-2: 93.7%
Ic1cccc(CSc2nnc(-c3ccncc3)o2)c1: 98.6%
c1ccc(-c2cnc(Nc3ccc(OCCN4CCCC4)cc3)s2)cc1: 78%
COc1cc2c(cc1OC)-c1[nH]nc(Nc3cccc(F)c3)c1C2: 84.1%
CCN(CC)CCNC(=O)c1c(C)[nH]c(/C=C2\C(=O)Nc3ccc(Cl)cc32)c1C: 13.1%
O=C1c2ccccc2-c2n[nH]c3cccc1c23: 68.4%
CN([C@@H](Cc1ccc(OS(=O)(=O)c2cccc3cnccc23)cc1)C(=O)N1CCN(c2ccccc2)CC1)S(=O)(=O)c1cccc2cnccc12: 109%
c1ccc(-c2[nH]ncc2-c2ccnc3ccccc23)nc1: 88.1%
Nc1cccc(-c2cc3c(Oc4cccc(O)c4)ncnc3[nH]2)c1: 105%
COc1cc2ncnc(Nc3cccc(Cl)c3)c2cc1OC: 87.3%
O=C(NC(NC(=S)Nc1ccc(F)c([N+](=O)[O-])c1)C(Cl)(Cl)Cl)C(c1ccccc1)c1ccccc1 (stereo not drawn): 105%
CN(C)C[C@H]1CCn2c(c(C3=C(c4cn(C)c5ccccc45)C(=O)NC3=O)c3ccccc32)C1: 5.9%
O=C1C(Cl)=C(N2C(=O)CCC2=O)C(=O)c2ccccc21: 96.6%
CCOc1nc(NC(=O)Cc2cc(OC)ccc2OC)cc(N)c1C#N: 79.9%
Cc1cc2ncc(-c3ccccc3)nc2cc1C: 99.2%
Cc1cn(-c2cc(NC(=O)c3ccc(C)c(Nc4nccc(-c5cccnc5)n4)c3)cc(C(F)(F)F)c2)cn1: 104%
CCN(CC)C(=O)c1ccc(Nc2nc(OCC3CCCCC3)c3[nH]cnc3n2)cc1: 57.1%
COc1cc2ncnc(Nc3ccc(O)c(Br)c3)c2cc1OC: 78.2%

Set 3
Target: Eukaryotic initiation factor 4A-I (EIF4A1, Homo sapiens, UniProt P60842)
Chain of UniProt P60842 (whole entry, looked up): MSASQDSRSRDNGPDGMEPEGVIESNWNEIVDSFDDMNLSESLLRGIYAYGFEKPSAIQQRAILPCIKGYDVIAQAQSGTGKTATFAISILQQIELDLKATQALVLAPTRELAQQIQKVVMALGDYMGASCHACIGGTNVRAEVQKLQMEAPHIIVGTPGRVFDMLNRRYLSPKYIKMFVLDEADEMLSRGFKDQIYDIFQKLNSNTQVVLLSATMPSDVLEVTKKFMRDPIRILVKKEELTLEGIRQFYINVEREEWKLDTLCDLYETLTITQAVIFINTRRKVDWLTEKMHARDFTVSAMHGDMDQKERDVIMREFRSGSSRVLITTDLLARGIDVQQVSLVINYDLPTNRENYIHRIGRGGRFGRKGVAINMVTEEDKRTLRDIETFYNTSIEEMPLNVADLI
Read-out: RNA clamping
Technique: fluorescence polarization
Tested at: concentration not given
Added: FAM-labelled poly r(AG)8 RNA
Direction: higher = more clamping
Endpoint: fluorescence polarization change
COC(=O)[C@@H]1[C@@H](c2ccccc2)[C@]2(c3ccc(OC)cc3)Oc3cc(OC)cc(OC)c3[C@@]23NC(c2cccnc2)=N[C@@]13O: 33.4 mP
COc1ccc([C@@]23Oc4cc(OC)cc(OC)c4[C@]2(O)c2nc(-c4ccccn4)[nH]c(=O)c2[C@H]3c2ccccc2)cc1: 5.9 mP
COC(=O)[C@H]1C(=O)[C@@]2(NCC3CCOCC3)c3c(OC)cc(OC)cc3O[C@@]2(c2ccc(OC)cc2)[C@@H]1c1ccccc1: -12.1 mP
COc1ccc([C@@]23Oc4cc(OC)cc(OC)c4[C@]2(O)c2nc(-c4cccc(OC)c4)[nH]c(=O)c2[C@H]3c2ccccc2)cc1: 13.9 mP and 31.5 mP
COC(=O)[C@H]1[C@@H](O)[C@@]2(O)c3c(OC)cc(OS(=O)(=O)c4ccc(C)cc4)cc3O[C@@]2(c2ccc(OC)cc2)[C@@H]1c1ccccc1: 23 mP
COc1ccc([C@@]23Oc4cc(OC)cc(OC)c4[C@]2(O)[C@@H]2OC(=O)[C@@H]2[C@H]3c2ccccc2)cc1: 43.3 mP
COc1ccc([C@@]23Oc4cc(OC)cc(OC)c4[C@]2(O)c2nc(-c4ccccc4)[nH]c(=O)c2/C3=C\Cc2ccccc2)cc1: -11.2 mP

Set 4
Cell line: Huh-7
Tested at: 10 µM
Time: 24 h
Endpoint: viability
Nc1ccc(C(=O)O)cc1: 100%
OCc1ccccc1O: 105%
Cn1cnc([N+](=O)[O-])c1Sc1ncnc2nc[nH]c12: 98.8%
CCCCCCCCCCCCCCCCCCCCCCO: 101%
CC(=O)/N=c1/sc(S(N)(=O)=O)nn1C: 98.3%
CC(=O)NS(=O)(=O)c1ccc(NC(=O)c2ccccc2C(=O)O)cc1: 100%
C[C@@H]1[C@H](O)[C@@H](C)/C=C/C=C/C=C/C=C/C=C/C=C/C=C/[C@H](O[C@@H]2O[C@H](C)[C@@H](O)[C@H](N)[C@@H]2O)C[C@@H]2O[C@](O)(C[C@@H](O)C[C@@H](O)[C@H](O)CC[C@@H](O)C[C@@H](O)CC(=O)O[C@H]1C)C[C@H](O)[C@H]2C(=O)O: 70.2%
O=c1oc2ccccc2c(O)c1Cc1c(O)c2ccccc2oc1=O: 87.9%
C#CCN(C)Cc1ccccc1: 100%

Mixed results
Cn1cncc1[C@@](O)(COc1ccc(C#N)cc1-c1ccc(OC(F)(F)F)cc1)c1ccc(C#N)cc1
cells with altered tubulin phenotype (HEK293T; high-content imaging; 10 µM, 12 h): 93.3% and 96.2%

CO[C@@H](C)c1c(Nc2ccc([C@H](N(C)C(=O)C3CCS(=O)(=O)CC3)C(F)(F)F)cc2)cnc2cc(Cl)nn12
viability (normal organoid sample E; CellTiter-Glo; human, normal-adjacent epithelium; 1 µM; reference: DMSO): 93.5% and 101%

A few entries again (set 3):
COc1ccc([C@@]23Oc4cc(OC)cc(OC)c4[C@]2(O)[C@@H]2OC(=O)[C@@H]2[C@H]3c2ccccc2)cc1: 43.3 mP
COc1ccc([C@@]23Oc4cc(OC)cc(OC)c4[C@]2(O)c2nc(-c4ccccn4)[nH]c(=O)c2[C@H]3c2ccccc2)cc1: 5.9 mP
COc1ccc([C@@]23Oc4cc(OC)cc(OC)c4[C@]2(O)c2nc(-c4cccc(OC)c4)[nH]c(=O)c2[C@H]3c2ccccc2)cc1: 13.9 mP and 31.5 mP
COc1ccc([C@@]23Oc4cc(OC)cc(OC)c4[C@]2(O)c2nc(-c4ccccc4)[nH]c(=O)c2/C3=C\Cc2ccccc2)cc1: -11.2 mP
COC(=O)[C@H]1[C@@H](O)[C@@]2(O)c3c(OC)cc(OS(=O)(=O)c4ccc(C)cc4)cc3O[C@@]2(c2ccc(OC)cc2)[C@@H]1c1ccccc1: 23 mP
COC(=O)[C@@H]1[C@@H](c2ccccc2)[C@]2(c3ccc(OC)cc3)Oc3cc(OC)cc(OC)c3[C@@]23NC(c2cccnc2)=N[C@@]13O: 33.4 mP
COC(=O)[C@H]1C(=O)[C@@]2(NCC3CCOCC3)c3c(OC)cc(OC)cc3O[C@@]2(c2ccc(OC)cc2)[C@@H]1c1ccccc1: -12.1 mP
